Measured values collected from several papers.
Protocols differ between the studies behind these lines. “And” joins repeats or separate records; there may be more than shown. ± marks the error that the study gave.

SMILES	target or system	assay	system	conditions	how to read	endpoint	value
O=CCNCCOn1c(=O)n(OCCNCCO)c(=O)n(OCCNCCOn2c(=O)n(OCCNCCO)c(=O)n(OCCNCCO)c2=O)c1=O	HUVEC	cell growth or viability, MTT	–	50 µg/mL, 48 h	–	viability	25.5%
COc1cc(/C=C/C=C2\SC(=S)NC2=O)ccc1O	HeLa	CellTiter-Glo	–	5 µM, 24 h, unit not given	relative to: untreated	viability	0.979 and 0.887
CCCCCCCCCCCCOC(=O)c1ccc(O)cc1	Caco-2 monolayers	–	–	5 µM, 1 h, basolateral to apical	–	mass balance	87%
Cl.NCc1ccc2c(c1)CN(C1CCC(=O)NC1=O)C2=O (centres unmarked)	JHH7	CellTiter-Glo	–	concentration not given, 72 h	–	minimum viability	32.3% and < 50%
O=C1NC2(CC2)COc2ncc(F)cc2[C@H]2COCCN2c2ccn3ncc1c3n2	CHL	–	–	5 µg/mL, 24 h, without S9	–	numerical aberrations	0%
CN1CCN(c2ccc(NC(=O)c3cc(-c4ccccc4)n(-c4ccccc4)n3)cc2)CC1	HeLa	cell growth or viability	–	–	–	CC50	38 µM
CC(=O)N[C@H](C(=O)N[C@H](C(=O)N[C@@H](CCCNC(=N)N)C(=O)N[C@@H](CC(N)=O)C(=O)N[C@@H](CC(=O)O)C(=O)N[C@H](C(=O)N1CCC[C@@H]1C(=O)N1CCC[C@H]1C(=O)N[C@@H](CC(=O)O)C(=O)N[C@@H](CO)C(=O)N[C@@H](CC(C)C)C(=O)N[C@@H](CC(C)C)C(=O)N[C@H](C(=O)N[C@@H](Cc1ccccc1)C(N)=O)C(C)C)C(C)C)[C@@H](C)O)C(C)C	HEK-293T	subcellular fractionation LC-MS	nuclear fraction	20 µM, 24 h	–	peptide amount	not detected
NC(=O)c1cccc(NC(=O)c2cc(-c3ccc(Br)cc3)n(-c3ccccc3)n2)c1	HeLa	cell growth or viability	–	–	–	CC50	> 50 µM
CN1CCCNC(=O)c2cccc(c2)C(=O)NCCCN(C)CCCNc2cccc3c2C(=O)c2cccc(c2C3=O)NCCC1	HeLa	cell growth or viability, CCK-8	–	0.15 µM, 48 h	–	viability	66.3%
O=C(NC1CCOCC1)c1ccc([C@H]2[C@@H](F)[C@@H](F)C[C@@H](F)[C@H]2F)cc1	–	hepatocyte stability	cryopreserved mouse hepatocytes	1 µM	–	hepatic clearance	21 mL/min/kg
O=C(Nc1cccc(CNc2ncccn2)c1)c1cc(-c2ccccc2)n(-c2ccccc2)n1	HeLa	cell growth or viability	–	–	–	CC50	> 100 µM
CC(C)C[C@@H]1NC(=O)[C@H](CO)NC(=O)[C@H](CC(=O)O)NC(=O)[C@@H]2CCCN2C(=O)[C@H]2CCCN2C(=O)[C@H](C(C)C)NC(=O)[C@H](CC(=O)O)NC(=O)[C@H](CC(N)=O)NC(=O)[C@H](CCCNC(=N)N)NC(=O)[C@H]([C@@H](C)O)NC(=O)[C@H](C(C)C)NC(=O)CCNC(=O)CCNC(=O)[C@H](Cc2ccccc2)NC(=O)[C@H](C(C)C)NC(=O)[C@H](CC(C)C)NC1=O	HEK-293T	subcellular fractionation LC-MS	nuclear fraction	20 µM, 2 h	–	concentration	not detected
O=C(OCc1ccc(O[C@@H]2O[C@H](COC(=O)c3ccc(O)cc3)[C@@H](O)[C@H](O)[C@H]2O)cc1)c1ccc(O)cc1	HaCaT	cytotoxicity, MTT	–	48 h, 10% FBS	–	IC50	> 200 µM
Cc1cc(=O)c2c(O)c3c(O[C@@H]4O[C@H](CO)[C@@H](O)[C@H](O)[C@H]4O)cc(O)cc3cc2o1	HepaRG co-cultured with HK-2	MTT	–	16.67 µM, 24 h	relative to: untreated control	cell viability	102 ± 13.7%
O=C(c1cc(-c2ccccc2)n(-c2ccccc2)n1)N1CCN(Cc2ccccn2)CC1	HeLa	cell growth or viability	–	–	–	CC50	> 100 µM
O=C(O)/C=C\C(=O)NCCCOCCOCCOCCCNC(=O)/C=C\C(=O)O	HaCaT	MTT	–	up to 1000 ppm, 24 h	–	cytotoxicity	not toxic
OB(O)c1sccc1/C=N/OCc1ccccc1	HEK-293T	cell growth or viability, MTT	–	48 h	–	IC50	> 100 µM
O=C(Nc1ccc(CNc2ncccn2)cc1)c1cc(-c2ccccc2)n(-c2ccccc2)n1	HeLa	cell growth or viability	–	–	–	CC50	> 50 µM
O=C(OC[C@H]1O[C@@H](Oc2ccc(CO)cc2)[C@H](O)[C@@H](O)[C@@H]1O)c1ccc(O)cc1	HaCaT	cytotoxicity, MTT	–	48 h, 10% FBS	–	IC50	> 200 µM
O=C(c1cc(-c2ccccc2)n(-c2ccccc2)n1)N1CCC(N2CCCC2)CC1	HeLa	cell growth or viability	–	–	–	CC50	> 100 µM
CN1CCC(c2ccc(-c3ccc([C@H]4[C@@H](F)[C@@H](F)C[C@@H](F)[C@H]4F)cc3)cn2)CC1	–	hepatocyte stability	cryopreserved rat hepatocytes	1 µM	–	hepatic clearance	33 mL/min/kg
NC(=O)c1cccc(NC(=O)c2cc(-c3ccccc3)n(-c3ccccc3)n2)c1	HeLa	cell growth or viability	–	–	–	CC50	> 50 µM
N=C(N)NCCC[C@@H]1NC(=O)[C@H](CCCNC(=N)N)NC(=O)[C@@H](C(c2ccccc2)c2ccccc2)NC(=O)[C@H](Cc2c[nH]c3ccccc23)NC(=O)[C@@H](C(c2ccccc2)c2ccccc2)NC(=O)[C@@H](CCCNC(=N)N)NC(=O)[C@@H](CCCNC(=N)N)NC1=O	MRC5	cell growth or viability, MTS	–	100 µg/mL, 24 h	–	viability	> 90%

A few entries again:
SMILES	target or system	assay	system	conditions	how to read	endpoint	value
CN1CCC(c2ccc(-c3ccc([C@H]4[C@@H](F)[C@@H](F)C[C@@H](F)[C@H]4F)cc3)cn2)CC1	–	hepatocyte stability	cryopreserved rat hepatocytes	1 µM	–	hepatic clearance	33 mL/min/kg
O=C1NC2(CC2)COc2ncc(F)cc2[C@H]2COCCN2c2ccn3ncc1c3n2	CHL	–	–	5 µg/mL, 24 h, without S9	–	numerical aberrations	0%
O=C(Nc1ccc(CNc2ncccn2)cc1)c1cc(-c2ccccc2)n(-c2ccccc2)n1	HeLa	cell growth or viability	–	–	–	CC50	> 50 µM
